Measured values from different studies.
A part holds a random share of what one study measured. Changes are numbered by the printed parent chain.

Block 1
Target: Fragile X messenger ribonucleoprotein 1, C-terminal low-complexity region (Fmr1, Mus musculus, UniProt P35922)
Technique: RNA Bind-n-Seq
Form: RNA
Sample: in vitro
Concentration: 200 nM
Setting: whole 134-nt RNA, ends assumed
Together with: 150 mM LiCl
Baseline: input library
Direction: higher = stronger binding
All molecules: 7-deaza-guanosine replaces G
Shared flanks, not repeated: GGGAGUUCUACAGUCCGACGAUC … UGGAAUUCUCGGGUGUCAAGG
`CUGUGCUACACAUCGUAUGUACCGAAUCGGGGUUUUUUUGGGUUUUUUUGGUUUUUUUGGGGAAAGUAUUAUGUUACGCCGUUCGGAUCU` gave a log2 enrichment of 0.996.
For `CAAGUCCUGUGCUACACAUCGUAUGUACCGAAUCGGGGUUUGGGUUUGGUUUGGGGAAAGUAUUAUGUUACGCCGUUCGGAUCUGCACUU`, the log2 enrichment was -1.23.
For `CUCAAGUCCUGUGCUACACAUCGUAUGUACCGAAUCGGGGUGGGGUGGUGGGGAAAGUAUUAUGUUACGCCGUUCGGAUCUGCACUUCCA`, the log2 enrichment was -0.399.
`ACCAUGCAGGUGGGCAUCUUUGGGAAGAAAGGCAAGGGGGGGAUAGGGAGGGGGGUAACACUUUGGGAACAGGUGGUCCCAGGUCGUUUC` gave a log2 enrichment of 1.32.
`AAGUCCUGUGCUACACAUCGUAUGUACCGAAUCGGGGUUUGGUUUGGGGUUUGGGGAAAGUAUUAUGUUACGCCGUUCGGAUCUGCACUU` has a log2 enrichment of -1.85.
The log2 enrichment of `CUCAAGUCCUGUGCUACACAUCGUAUGUACCGAAUCGGGGAAGGAAGGGAAGGGAAAGUAUUAUGUUACGCCGUUCGGAUCUGCACUUCC` is reported as -0.537.
For `UUCCUCAAGUCCUGUGCUACACAUCGUAUGUACCGAAUCGGGAGGAGGAGGAAAGUAUUAUGUUACGCCGUUCGGAUCUGCACUUCCAGC`, the log2 enrichment was -2.52.
For `CUCAAGUCCUGUGCUACACAUCGUAUGUACCGAAUCGGGGAAGGGAAGGAAGGGAAAGUAUUAUGUUACGCCGUUCGGAUCUGCACUUCC`, the log2 enrichment was -0.751.
`AAGUCCUGUGCUACACAUCGUAUGUACCGAAUCGGGUUUUUUUGGGUGGGAAAGGGAAAGUAUUAUGUUACGCCGUUCGGAUCUGCACUU` has a log2 enrichment of -1.29.
`UUUGAAGGUGAUUUCUGGCCCAAUGUGUUAGAAGAGAGCAUUAAGGAACUAGAACAAGAAGAAGAGGAGAGGAAAAAGGAAGAGAGCACU` gave a log2 enrichment of -2.21.
`CACAGACAACACGCACCCACACAGACACAGAGGGAAGGGGUUGGGAUGGGGACAGGAAACACAGCAGGGCGGGGUAGGACCCCAGCCCCU` has a log2 enrichment of -0.114.

Block 2
Target: CCND3, cyclin fold, Cln2 fusion (human)
Technique: yeast growth competition, sequencing
Sample: yeast
Setting: weak parent motif
Baseline: not given
Direction: higher = stronger binding
Parent: RBL2 docking peptide (human); STTRRRLFVENDS; partner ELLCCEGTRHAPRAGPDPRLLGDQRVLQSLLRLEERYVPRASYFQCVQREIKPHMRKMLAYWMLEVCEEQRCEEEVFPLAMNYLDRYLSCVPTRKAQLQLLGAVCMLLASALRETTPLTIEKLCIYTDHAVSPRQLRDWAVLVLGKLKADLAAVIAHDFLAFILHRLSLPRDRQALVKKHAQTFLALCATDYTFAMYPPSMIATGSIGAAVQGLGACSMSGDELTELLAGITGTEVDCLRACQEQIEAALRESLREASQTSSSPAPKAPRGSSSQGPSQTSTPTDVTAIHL
Under “normalised enrichment score”, `L7S` is recorded as 0.128.
For `T2G`, “normalised enrichment score” read 0.253.
Under “normalised enrichment score”, `R5W` is recorded as 0.129.
Under “normalised enrichment score”, `N11H` is recorded as 0.0942.
`N11V` — result for “normalised enrichment score”: 0.123.
Under “normalised enrichment score”, `E10W` is recorded as 0.093.
`T3I` — result for “normalised enrichment score”: 0.066.
`R5G`: “normalised enrichment score” -0.00231.
Under “normalised enrichment score”, `R4I` is recorded as 0.0989.
For `R4N`, “normalised enrichment score” read 0.0696.
For `R6S`, “normalised enrichment score” read 0.0601.
Under “normalised enrichment score”, `N11T` is recorded as 0.144.
Under “normalised enrichment score”, `E10M` is recorded as 0.216.
`R5Y` — result for “normalised enrichment score”: 0.155.
For `L7E`, “normalised enrichment score” read 0.0801.
`V9W` — result for “normalised enrichment score”: 0.149.
`T2C`: “normalised enrichment score” 0.095.

Block 3
Target: Interferon regulatory factor 7, full length, phosphomimetic (IRF7, Homo sapiens, UniProt Q92985, residues 1-503, S471D/S472D/S475D/S476D/S477D/S483D/S484D/S487D)
Technique: protein-binding microarray
Form: double-stranded DNA, one strand shown
Sample: in vitro
Concentration: 2200 nM top
Setting: 60-bp whole probe
Together with: salmon DNA 0.4 mg/ml
Baseline: random background probes
Direction: higher = stronger binding
Shared flanks, not repeated: GCCTAGCAC … GTCTTGATTCGCTTGACGCTGCTG
Residues (chain): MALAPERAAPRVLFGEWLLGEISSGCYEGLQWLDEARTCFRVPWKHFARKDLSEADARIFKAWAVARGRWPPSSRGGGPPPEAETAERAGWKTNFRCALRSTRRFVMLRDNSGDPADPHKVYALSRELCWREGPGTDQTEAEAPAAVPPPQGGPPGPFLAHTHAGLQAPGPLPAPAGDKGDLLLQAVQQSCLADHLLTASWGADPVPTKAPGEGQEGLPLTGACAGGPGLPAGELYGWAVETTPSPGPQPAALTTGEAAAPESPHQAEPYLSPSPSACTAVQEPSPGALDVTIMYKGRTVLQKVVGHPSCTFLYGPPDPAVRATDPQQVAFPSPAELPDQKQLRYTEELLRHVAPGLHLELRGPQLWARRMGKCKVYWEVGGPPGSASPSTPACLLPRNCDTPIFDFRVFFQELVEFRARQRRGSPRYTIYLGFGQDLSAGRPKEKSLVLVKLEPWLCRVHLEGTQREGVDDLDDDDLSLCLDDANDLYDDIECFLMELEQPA
For `TTAGGTTTCGACACGGGGTTAGTGCTA`, “fitted relative affinity” read 2.79 z-score.
For `TCATTTTTCTAAACCATACTGTGCTAG`, “fitted relative affinity” read 1.96 z-score.
Under “fitted relative affinity”, `CATACAATTTCAGATTCCAGTGTGCTA` is recorded as 1.43 z-score.
`CTAGCTTCCATTTTCTGAACGTGCTAG` — result for “fitted relative affinity”: 3.34 z-score.
`GACGGTTTCCTTTCCTTGACGTGCTAG` — result for “fitted relative affinity”: 4.77 z-score.
`CTCTCTTCACATATAATTTTGTGCTAG`: “fitted relative affinity” 1.5 z-score.
`TAAGATTCCAGTTTCGATTAGTGCTAG` — result for “fitted relative affinity”: 6.69 z-score.
`TCAACTCTCTGCTTGTGACTGTGCTAG` — result for “fitted relative affinity”: 1.29 z-score.
For `TCAAGCAAAAATGATTGACTGTGCTAG`, “fitted relative affinity” read -0.545 z-score.
Under “fitted relative affinity”, `TCAACTATTGCTTCCTCACTGTGCTAG` is recorded as 1.76 z-score.
`GACGGTATCGACTTCCGGGACGTGCTA`: “fitted relative affinity” 0.777 z-score.
`GACGGACTGGGGACTGGGCACGTGCTA` — result for “fitted relative affinity”: -1.01 z-score.
Under “fitted relative affinity”, `GACGGACTGCTAGTGCTGACGTGCTAG` is recorded as -0.263 z-score.
`TCACCAATCAGGACTCAGACTGTGCTA` — result for “fitted relative affinity”: 0.179 z-score.
Under “fitted relative affinity”, `TCATCTCCCAGACTGGAGTGGTGCTAG` is recorded as 0.445 z-score.
Under “fitted relative affinity”, `CTAAAACTCTTTATTTAAGCGTGCTAG` is recorded as -0.433 z-score.

Single results of other studies
With `PhoQ, residues 284 288 289 292 302 303 SLCLSL` the fold induction was 1.94 (PhoP, residues 12 14 15 18 19 NMSFL (Escherichia coli, UniProt P23836); Sort-seq, refers to: YFP reporter; E. coli; PhoQ-PhoP variant library, together with: 10 µM Mg2+; baseline: high Mg2+ state, higher = stronger signaling).

Repeated from above (block 2):
Under “normalised enrichment score”, `N11T` is recorded as 0.144.
Under “normalised enrichment score”, `R4I` is recorded as 0.0989.
`T3I` — result for “normalised enrichment score”: 0.066.
